Assay results pooled from the literature.
Each numbered part is a random draw from the data of one study; scales do not carry over between parts. Changes are numbered by the printed parent chain.

Set 1
Target: Probable WRKY transcription factor 50, DNA-binding domain (WRKY50, Arabidopsis thaliana, UniProt Q8VWQ5, residues 99-173)
Technique: DNA-protein interaction ELISA
Form: double-stranded DNA, one strand shown
Matrix: in vitro, bacterial lysate
Concentration: not given
Notes: whole dsDNA probe, crude lysate protein
Reference: highest signal in screen
Direction: higher = stronger binding
Residues (chain): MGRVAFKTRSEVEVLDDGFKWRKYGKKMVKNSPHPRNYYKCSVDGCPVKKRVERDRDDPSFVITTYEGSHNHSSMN
Sequence	relative absorbance
AAAAAACTGACCGTCAGCGCCCACGCAAAA	40.7 % of maximum
AAAAAACGGTCGCGATCGTTAATGATAAAA	19.8 % of maximum
AAAAAACCCGGTTGGAGAAAATAATTAAAA	23.8 % of maximum
AAAAAAAACTGTCGCCCCCGGCTGGCAAAA	17.7 % of maximum
AAAAAATGGCTCGGGTTCCAAGGTTGAAAA	22.6 % of maximum
AAAAAAAGTTGTACTTATTATACTTTAAAA	20.6 % of maximum
AAAAAACCGGCACGATTTGGATATTCAAAA	17.6 % of maximum
AAAAAAGCTGTCACTGTAGTCGGTCCAAAA	22.3 % of maximum
AAAAAATTCAAAATGATCACTACGGGAAAA	9.63 % of maximum
AAAAAAGGTCTGGACGATCACCGGGAAAAA	39.6 % of maximum
AAAAAACCAGCCTCAGTCCTGAACAAAAAA	10.5 % of maximum
AAAAAAAGGGTCCGGTGCATACATGTAAAA	45.4 % of maximum
AAAAAATATGGCACTCGCCGCACATCAAAA	24.1 % of maximum
AAAAAAGCCATCATGGTTAGTGTACAAAAA	35.7 % of maximum
AAAAAACGTGCGCGTGCATGTCATCGAAAA	12 % of maximum
AAAAAACCTTCCCCCTCTTCTGCCTTAAAA	14.2 % of maximum
AAAAAAGGTAATGCCGGTCCCAGTATAAAA	28.3 % of maximum
AAAAAAATCCATATTATTGCTACCCGAAAA	21.6 % of maximum
AAAAAATAGTGTGATTGGTATCCAGTAAAA	20.1 % of maximum
AAAAAATCCTGTTTGCGTTTGATTTTAAAA	30.9 % of maximum
AAAAAAAACGTCTGGCGGGGTTGAGAAAAA	39 % of maximum
AAAAAAAGTGGCCGCTAGTCAACTCAAAAA	40 % of maximum
AAAAAACTGGCGACTGCCAGTGGTAGAAAA	18.9 % of maximum
AAAAAAGTCGTTACACGTATGCGTGCAAAA	65.8 % of maximum
AAAAAATTCGGGACTAGTAGTGGTGAAAAA	16.6 % of maximum

Set 2
Target: RING finger protein unkempt homolog, zinc fingers 1-6, GST-SBP tag (UNK, Homo sapiens, UniProt Q9C0B0, residues 30-357)
Technique: RNA Bind-n-Seq
Form: RNA
Matrix: in vitro
Concentration: not given
Notes: RNA with constant flanks, human and mouse sites, ends assumed
Reference: input RNA pool
Direction: higher = stronger binding
Shared flanks, not repeated: GGGAGUUCUACAGUCCGACGAUC … CAACAGAGGAUUGAGCAUCA
Target sequence (chain): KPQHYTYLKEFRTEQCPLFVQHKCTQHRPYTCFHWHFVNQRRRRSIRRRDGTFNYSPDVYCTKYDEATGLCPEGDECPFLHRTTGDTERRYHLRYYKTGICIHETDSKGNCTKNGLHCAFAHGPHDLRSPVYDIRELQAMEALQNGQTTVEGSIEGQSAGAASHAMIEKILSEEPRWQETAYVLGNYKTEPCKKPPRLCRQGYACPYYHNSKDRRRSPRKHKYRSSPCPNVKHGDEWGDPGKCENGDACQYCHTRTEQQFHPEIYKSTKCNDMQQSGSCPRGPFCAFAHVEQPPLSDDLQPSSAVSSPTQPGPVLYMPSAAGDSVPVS
Sequence	bound/input enrichment [ratio]
UAUUCCUCUUCUGGAGUAUGUGUUCUCUAUGAGUGCAAGGACCAGACCAUGAAACUUGUUGAGAGUUCAGGCUGUCCAGCUUUGGAUUGUCCAGAGUCUCAUCAGAUAACCUUGUCUCAC	0.0683
GGCAUCGACCUGCUUCGCACCUACCUGUGGCGCUGCCAGUUCCUUUUACCCUUCGUCAGCUUGGGCUUGAUGUGCUUUGGGGCGUUGAUUGGCCUCUGUGCCUGUAUCUGCCGCAGCCUG	0.113
CCAUUUGUGAUCUCCCGCUCGACCUUUGCUGGCCACGGCCGAUACGCCGGCCACUGGACGGGGGACGUGUGGAGCUCCUGGGAGCAGCUCGCCUCCUCCGUGCCAGAAAUCCUGCAGUUU	0.0633
CUUAAUGGCUUGGAACCAGAAAAUAUCCACAUGAUGAUAGGCUCAAUGACAAUCGACUGUUUGGGAAUCCUGAAUGACCUCUCUGACUGUGAAGAUAAACUCUUUCCUAUUGGAUACCAG	0.225
AGUAAGCGGGAUUUUAUGCUGAUCACAAACAAAUCCUUGAAAGAAGAAGAUGGAGAAGAAAUAGUUACCUAUGAUCGAGUAUACCAUGCUGUGUCUGUUAUGCGGCAAAGCCGAAGAUAC	0.628
AGUGACGAGGAUGGGUGACUGUCAGCCCUGGCUCCUUGUCCAUCAGACUUCCACGACAGUGUUGUGUGCACUUCAGCACGAGCAGGGUUGUUCUUCCCGUUAUUGUUGGUUUUGAGACAG	0.0974
CAGUCCAUGGAAUCUUGUUGCAUUUUGGGGAGUUGUUUUGUGUCUUUACAUCUUGGAGUCUCUUAUACCCUUUGAUUUUUCUGGAGCCCAUGCCUUCCCACACAAAACAAGACAUGUAUG	0.212
GUUUUUAUACAGCCUCAAAUUGUUUUAUUAAAAAAAAAAAGAUUAAAAAAUGGUGAUGCUUAGCAGCAGUUUGUAUAAGCUCCUAGUGUCAACUCCAUGGGACUGAUGGCUUUGCUCAUU	1.25

Set 3
Target: ABI1, truncated, D143A, DHFR fusion (Arabidopsis thaliana)
Technique: DHFR PCA, deep sequencing
Matrix: yeast
Notes: methotrexate growth selection, single substitutions
Added: (+)-ABA 200 µM
Reference: wild-type fitted maximum
Direction: higher = stronger binding
Parent: PYL1, truncated, DHFR fusion (Arabidopsis thaliana); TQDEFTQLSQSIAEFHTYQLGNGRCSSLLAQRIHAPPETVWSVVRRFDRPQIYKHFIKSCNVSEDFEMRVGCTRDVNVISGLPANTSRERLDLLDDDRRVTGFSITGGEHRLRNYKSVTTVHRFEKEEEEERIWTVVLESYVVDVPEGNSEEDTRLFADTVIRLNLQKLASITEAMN; partner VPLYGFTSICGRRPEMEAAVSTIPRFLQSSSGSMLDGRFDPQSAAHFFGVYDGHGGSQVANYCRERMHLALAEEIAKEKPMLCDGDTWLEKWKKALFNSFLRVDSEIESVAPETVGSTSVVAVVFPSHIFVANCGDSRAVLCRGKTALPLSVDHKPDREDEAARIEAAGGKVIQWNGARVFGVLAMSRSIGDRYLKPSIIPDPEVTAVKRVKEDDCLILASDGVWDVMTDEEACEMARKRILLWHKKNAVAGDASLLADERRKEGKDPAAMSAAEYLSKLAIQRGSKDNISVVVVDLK
Change	relative binding score
A175T	100%
V78H	26.7%
V161C	75.6%
Y18Q	87.2%
K168P	2.8%
I12H	68.5%
S80Q	53%
E109N	110%
E64K	104%
Y141G	-2.64%
Q2V	99.5%
N114F	27.4%
R132E	114%
R111K	88.3%
P37I	94%
R45L	1.6%
G107S	91.8%
I52D	99.7%
I52C	99.4%
H55I	104%
V76D	-7.68%
P50E	-6.61%

Set 4
Target: RNA binding protein fox-1 homolog 2, RRM domain, GST-SBP tag (RBFOX2, Homo sapiens, UniProt O43251-10, residues 100-194)
Technique: RNA Bind-n-Seq
Form: RNA
Matrix: in vitro
Concentration: 365 nM
Notes: natural RNA segment, single round, ends assumed
Reference: no-protein control
Direction: higher = stronger binding
Shared flanks, not repeated: GGGAGUUCUACAGUCCGACGAUC … UGGAAUUCUCGGGUGCCAA
Construct (chain): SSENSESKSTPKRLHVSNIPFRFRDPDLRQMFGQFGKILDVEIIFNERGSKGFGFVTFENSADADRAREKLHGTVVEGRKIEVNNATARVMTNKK
Sequence	RBNS enrichment (R)
CUUUUCCCUAGGCUGUUCCGCGUGGGUUACCUUAUCACCCUGGAGCACUUGGUAUUCCAGACCCCUGACAUGAGGAAUGCAGGUUCACACUGUAAAGAGUUUGUGAAAGG	0.314
CUCCUACCAUCACCACCAUCACCACCACCCACAAGCACUGCCCCCCUUCCCAUCCGUCCUCCCUCAGGAACCAAGAAGUCCAAGAAGGGACGGGGCCGCUCAGGGCGUUA	0.686
GUUAUUGUCCUUUUACAUCUUGUUAAAUAGCCAUUGCUUUUGAGAAUCAGAUAGUGUGUUGUUUAGGGGUUAAUUGUGUCUAUAUCUUUCAAAAACUUUUAUAUUAUGUA	0.41
UUAGCUCUCUCAGAUCCUAUCCUGUGGAAUUUAGUUAUUAUGUGUAUUUAUGUAGUAUUUCAAACAUUUCAAAAUGCUUUCAUCUAUGUUUAUCACAUUUUAAUACCACA	0.232
ACCCUCCCUCAGCCUCCAGAGGACUGAGAUAUGUGUGUGCACCUCCCAUCUCGCUCAGCACAGGGUUUCUGUGGGAUGAGUUUGAUUCUCUUGUUCUCACUGCUGAACUG	0.363
CCUUCCCGCUUUUCCCAGAGCUAAUACACAGGUGCUAUUAUUCAGAAAAAAACUGGUCAGCUCUAGCCAACAGUGAGGUUUCUUUUCUUCUGCCCUAACUAUUGUGUAGC	0.329
CUUCUUUCUUGUUUGGAGUUUUCUGUUGGAACCGCCGGCGUUGGCUCCGAAGACUUAGCGACGCCACUGGCGGCACCUUCUCCUGCGCCCAGUGAUGUUUCCACGGUGCC	0.279
CCUCAGGAUGGGGAAUAGCCAAGAAUGGCAGCCUCAGCGCAGAGGCAAGGUCAGAAAGAGACGGCGCUUCAGAGUUUCCUUUCCAGACACCCCUCCCCGCACUGUGAAGU	0.446

A few entries again (set 1):
Sequence	relative absorbance
AAAAAACCCGGTTGGAGAAAATAATTAAAA	23.8 % of maximum
AAAAAAAACTGTCGCCCCCGGCTGGCAAAA	17.7 % of maximum
AAAAAATGGCTCGGGTTCCAAGGTTGAAAA	22.6 % of maximum
AAAAAAAGTTGTACTTATTATACTTTAAAA	20.6 % of maximum
AAAAAACCGGCACGATTTGGATATTCAAAA	17.6 % of maximum
AAAAAAGCTGTCACTGTAGTCGGTCCAAAA	22.3 % of maximum
AAAAAATTCAAAATGATCACTACGGGAAAA	9.63 % of maximum
